Published values pooled from the literature.
Lines come from different studies, so protocols differ. Values joined by “and” are separate records of one study, mostly repeats; a detail may differ. ± marks the error that the study gave.
ache: Acetylcholinesterase (ache, Electrophorus electricus, UniProt O42275)
Chain of UniProt O42275 (whole entry, looked up): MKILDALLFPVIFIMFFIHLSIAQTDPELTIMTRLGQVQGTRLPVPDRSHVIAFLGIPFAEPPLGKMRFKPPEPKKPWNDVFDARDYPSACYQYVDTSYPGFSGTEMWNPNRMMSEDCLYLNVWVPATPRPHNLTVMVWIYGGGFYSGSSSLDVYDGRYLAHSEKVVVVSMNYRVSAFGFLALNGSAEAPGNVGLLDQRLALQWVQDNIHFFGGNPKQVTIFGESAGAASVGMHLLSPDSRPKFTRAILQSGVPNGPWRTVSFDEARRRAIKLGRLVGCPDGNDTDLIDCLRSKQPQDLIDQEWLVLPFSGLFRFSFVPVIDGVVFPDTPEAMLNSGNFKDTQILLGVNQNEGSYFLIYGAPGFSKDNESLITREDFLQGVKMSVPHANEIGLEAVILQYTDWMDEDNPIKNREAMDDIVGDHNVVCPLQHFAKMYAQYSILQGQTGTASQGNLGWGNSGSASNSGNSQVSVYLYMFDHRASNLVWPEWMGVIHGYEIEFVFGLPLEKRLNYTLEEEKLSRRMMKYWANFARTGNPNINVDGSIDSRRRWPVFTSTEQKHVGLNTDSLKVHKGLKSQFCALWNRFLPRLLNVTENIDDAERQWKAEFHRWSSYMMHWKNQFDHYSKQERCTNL
Chain of UniProt P48039 (whole entry, looked up): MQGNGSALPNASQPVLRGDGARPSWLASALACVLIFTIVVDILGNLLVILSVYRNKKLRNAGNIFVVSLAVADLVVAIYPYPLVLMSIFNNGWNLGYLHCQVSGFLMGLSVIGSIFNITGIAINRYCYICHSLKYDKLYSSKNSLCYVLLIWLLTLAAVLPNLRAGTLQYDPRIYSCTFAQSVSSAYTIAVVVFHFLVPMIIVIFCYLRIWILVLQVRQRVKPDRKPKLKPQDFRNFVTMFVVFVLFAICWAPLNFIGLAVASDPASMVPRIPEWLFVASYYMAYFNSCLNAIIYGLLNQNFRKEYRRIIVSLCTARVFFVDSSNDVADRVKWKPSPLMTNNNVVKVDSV
Chain of UniProt P52824 (whole entry, looked up): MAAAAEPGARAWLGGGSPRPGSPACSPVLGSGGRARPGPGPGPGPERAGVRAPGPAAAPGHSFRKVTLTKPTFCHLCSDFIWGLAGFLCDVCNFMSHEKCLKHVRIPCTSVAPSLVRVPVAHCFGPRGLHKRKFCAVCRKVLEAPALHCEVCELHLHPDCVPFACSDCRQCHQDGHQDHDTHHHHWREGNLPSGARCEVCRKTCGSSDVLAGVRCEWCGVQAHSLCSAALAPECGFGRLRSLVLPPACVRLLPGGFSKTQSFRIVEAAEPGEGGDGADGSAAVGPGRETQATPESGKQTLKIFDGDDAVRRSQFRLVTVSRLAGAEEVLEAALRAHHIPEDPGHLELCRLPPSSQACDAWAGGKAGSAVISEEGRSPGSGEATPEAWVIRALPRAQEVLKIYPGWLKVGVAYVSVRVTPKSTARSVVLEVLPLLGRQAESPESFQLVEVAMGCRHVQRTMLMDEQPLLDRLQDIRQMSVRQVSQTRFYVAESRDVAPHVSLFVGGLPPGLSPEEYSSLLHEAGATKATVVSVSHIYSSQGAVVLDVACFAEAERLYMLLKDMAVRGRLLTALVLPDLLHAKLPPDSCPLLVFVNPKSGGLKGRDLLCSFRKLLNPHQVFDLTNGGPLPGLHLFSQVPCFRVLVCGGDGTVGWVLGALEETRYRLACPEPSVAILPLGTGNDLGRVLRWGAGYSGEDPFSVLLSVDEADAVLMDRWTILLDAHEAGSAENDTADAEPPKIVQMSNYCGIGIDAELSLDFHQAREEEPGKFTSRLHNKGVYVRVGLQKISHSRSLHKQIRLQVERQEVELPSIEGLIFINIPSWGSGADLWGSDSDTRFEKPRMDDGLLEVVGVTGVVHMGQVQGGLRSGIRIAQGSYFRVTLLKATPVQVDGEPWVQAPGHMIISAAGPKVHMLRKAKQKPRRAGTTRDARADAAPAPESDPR
Chain of UniProt Q96BR1 (whole entry, looked up): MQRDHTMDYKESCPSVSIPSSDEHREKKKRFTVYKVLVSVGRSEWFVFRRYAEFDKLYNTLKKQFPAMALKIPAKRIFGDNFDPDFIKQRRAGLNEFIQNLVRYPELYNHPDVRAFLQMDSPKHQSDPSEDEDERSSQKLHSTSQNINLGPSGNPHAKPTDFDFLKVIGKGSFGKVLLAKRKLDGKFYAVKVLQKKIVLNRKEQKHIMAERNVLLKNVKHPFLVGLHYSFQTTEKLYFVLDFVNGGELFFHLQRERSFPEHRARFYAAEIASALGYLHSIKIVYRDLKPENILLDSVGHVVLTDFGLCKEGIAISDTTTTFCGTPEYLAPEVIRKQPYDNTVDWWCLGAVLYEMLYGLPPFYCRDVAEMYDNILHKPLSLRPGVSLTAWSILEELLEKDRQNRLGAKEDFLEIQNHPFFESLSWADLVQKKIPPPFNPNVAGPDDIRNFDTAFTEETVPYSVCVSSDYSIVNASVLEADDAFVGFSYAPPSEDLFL
Chain of UniProt O14757 (whole entry, looked up): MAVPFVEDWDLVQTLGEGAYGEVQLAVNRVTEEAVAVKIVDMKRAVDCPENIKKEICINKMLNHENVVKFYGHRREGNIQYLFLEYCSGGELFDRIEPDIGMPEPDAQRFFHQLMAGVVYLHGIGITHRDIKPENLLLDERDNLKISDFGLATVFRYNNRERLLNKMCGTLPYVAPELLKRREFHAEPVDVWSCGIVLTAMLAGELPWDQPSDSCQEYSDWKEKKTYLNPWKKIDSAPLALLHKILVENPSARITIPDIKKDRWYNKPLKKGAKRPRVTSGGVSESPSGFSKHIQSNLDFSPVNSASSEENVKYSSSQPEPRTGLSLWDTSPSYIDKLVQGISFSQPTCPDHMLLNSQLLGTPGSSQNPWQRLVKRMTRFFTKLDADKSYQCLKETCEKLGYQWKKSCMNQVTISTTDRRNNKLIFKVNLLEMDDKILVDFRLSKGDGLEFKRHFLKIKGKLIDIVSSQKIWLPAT
Chain of UniProt Q8IVH8 (whole entry, looked up): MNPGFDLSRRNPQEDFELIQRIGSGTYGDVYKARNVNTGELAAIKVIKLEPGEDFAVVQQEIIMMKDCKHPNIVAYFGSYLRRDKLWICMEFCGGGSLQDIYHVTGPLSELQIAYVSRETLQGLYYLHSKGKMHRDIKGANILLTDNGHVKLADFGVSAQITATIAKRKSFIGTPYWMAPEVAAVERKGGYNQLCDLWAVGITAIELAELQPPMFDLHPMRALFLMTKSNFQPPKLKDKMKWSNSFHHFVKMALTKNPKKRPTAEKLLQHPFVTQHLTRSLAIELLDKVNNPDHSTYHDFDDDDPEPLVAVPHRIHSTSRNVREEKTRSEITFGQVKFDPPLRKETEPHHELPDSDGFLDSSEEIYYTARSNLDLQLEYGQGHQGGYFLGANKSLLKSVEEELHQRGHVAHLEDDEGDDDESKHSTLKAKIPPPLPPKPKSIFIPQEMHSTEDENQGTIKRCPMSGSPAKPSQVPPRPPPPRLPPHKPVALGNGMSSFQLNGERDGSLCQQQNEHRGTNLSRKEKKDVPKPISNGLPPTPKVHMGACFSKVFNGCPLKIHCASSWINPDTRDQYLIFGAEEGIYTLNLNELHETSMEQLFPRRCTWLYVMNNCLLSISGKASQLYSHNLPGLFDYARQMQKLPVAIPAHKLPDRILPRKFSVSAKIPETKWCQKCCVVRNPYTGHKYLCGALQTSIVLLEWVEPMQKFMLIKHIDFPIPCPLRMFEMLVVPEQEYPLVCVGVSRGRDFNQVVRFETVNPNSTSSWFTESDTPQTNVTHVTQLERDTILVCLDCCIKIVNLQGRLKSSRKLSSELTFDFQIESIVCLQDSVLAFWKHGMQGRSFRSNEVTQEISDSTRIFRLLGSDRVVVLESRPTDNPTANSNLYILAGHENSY
Chain of UniProt Q9EP73 (whole entry, looked up): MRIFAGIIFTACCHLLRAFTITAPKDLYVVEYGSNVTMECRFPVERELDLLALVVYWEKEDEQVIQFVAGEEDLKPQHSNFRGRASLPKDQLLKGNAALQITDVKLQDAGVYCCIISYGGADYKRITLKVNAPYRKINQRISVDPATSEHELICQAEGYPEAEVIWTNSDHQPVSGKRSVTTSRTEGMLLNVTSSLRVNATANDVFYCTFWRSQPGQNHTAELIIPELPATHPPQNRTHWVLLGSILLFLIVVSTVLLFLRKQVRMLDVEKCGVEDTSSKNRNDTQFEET
Chain of UniProt O13828 (whole entry, looked up): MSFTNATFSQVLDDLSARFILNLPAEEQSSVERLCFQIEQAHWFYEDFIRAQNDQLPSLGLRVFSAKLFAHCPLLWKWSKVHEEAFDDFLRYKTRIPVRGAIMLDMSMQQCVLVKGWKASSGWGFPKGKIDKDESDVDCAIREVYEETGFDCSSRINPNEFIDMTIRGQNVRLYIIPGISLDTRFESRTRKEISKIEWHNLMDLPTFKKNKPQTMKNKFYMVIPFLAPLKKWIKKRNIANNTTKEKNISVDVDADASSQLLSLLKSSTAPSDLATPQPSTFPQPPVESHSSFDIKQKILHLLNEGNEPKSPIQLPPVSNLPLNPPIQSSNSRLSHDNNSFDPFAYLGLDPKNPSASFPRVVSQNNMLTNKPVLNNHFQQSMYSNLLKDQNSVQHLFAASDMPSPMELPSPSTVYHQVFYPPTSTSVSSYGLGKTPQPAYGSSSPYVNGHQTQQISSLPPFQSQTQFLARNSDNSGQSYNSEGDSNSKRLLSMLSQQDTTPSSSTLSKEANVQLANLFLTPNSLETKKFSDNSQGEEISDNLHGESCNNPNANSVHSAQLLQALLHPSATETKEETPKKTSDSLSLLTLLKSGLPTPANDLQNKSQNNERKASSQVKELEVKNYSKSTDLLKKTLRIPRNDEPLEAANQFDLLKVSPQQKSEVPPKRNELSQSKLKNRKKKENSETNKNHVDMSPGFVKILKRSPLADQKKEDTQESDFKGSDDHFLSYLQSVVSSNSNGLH

The inhibition of `CN(C)[C@H]1C[C@@]23CC[C@@]4(O2)C(=CC[C@]2(C)[C@@H](c5ccc6ccncc6c5)CC[C@H]24)C=C3[C@@H](O)[C@@H]1O` is reported as 16.5% (Diacylglycerol kinase theta (DGKQ, Homo sapiens, UniProt P52824); ATP probe labelling, inhibitor, KiNativ profiling; 0.1 µM).
With `c1ccc2[nH]ccc2c1` the inhibition was 38.9% (ache; enzyme activity, inhibitor, Ellman; 20 µM).
The inhibition of `CN[C@@H]1[C@H](O)[C@H](NC)[C@H]2O[C@]3(O)[C@H](O[C@@H]2[C@H]1O)O[C@H](C)C[C@H]3NC(=O)Cc1ccc(Cl)cn1` is reported as 9% (Melatonin receptor type 1A (MTNR1A, Homo sapiens, UniProt P48039); ligand displacement, radioligand; 10 µM).
With `O=C(NC1CCN(c2ncnc3[nH]cnc23)CC1)c1cccc(NS(=O)(=O)c2ccc(C(F)(F)F)cc2)c1` the inhibition was -2.78% (Genome polyprotein, NS5 methyltransferase domain (Zika virus, UniProt Q32ZE1); NS5 enzyme activity, inhibitor; 1.562 µM).
`N[C@H](C(=O)N1CCCC1)C1CCN(c2nccc3c(-c4ncc(Cl)cc4Cl)cccc23)CC1` has an inhibition of 0.3% (Serine/threonine-protein kinase Chk1 (CHEK1, Homo sapiens, UniProt O14757); kinase activity, inhibitor; 10 µM, together with: ATP 1 mM).
Under “serum total protein”, `O=C1NC2(CC2)COc2ncc(F)cc2[C@H]2COCCN2c2ccn3ncc1c3n2` is recorded as 63.9 ± 7 g/L (Sprague-Dawley rat, female, serum; oral, 2.5 mg/kg/day, end of recovery, 4-week subacute toxicity).
`COc1ccccc1-c1n[nH]c2nc(NC3CCN(C(=O)Cc4ccc(F)cc4F)CC3)ncc12` has a relative abundance of 1.26 (bead binding, competition bead pull-down, refers to: LINJ.36.2070; Leishmania donovani extract; 10 µM; baseline: vehicle).
The inhibition of `C[n+]1cn([C@@H]2O[C@H](COP(=O)([S-])OP(=O)(O)CP(=O)(O)OP(=O)([S-])OC[C@H]3O[C@@H](n4c[n+](C)c5c(O)nc(N)nc54)[C@H](O)[C@@H]3O)[C@@H](O)[C@H]2O)c2nc(N)nc(O)c21` (stereo partly shown) is reported as 29.9% (mRNA decapping complex subunit 2, with Dcp1 (dcp2, Schizosaccharomyces pombe, UniProt O13828); 200 µM, 0.25 h).
`O=C(Nc1ccccc1SSc1ccccc1NC(=O)c1ccccc1)c1ccccc1`: inhibition “inhibited” (Programmed cell death 1 ligand 1, with PD-1 (Cd274, Mus musculus, UniProt Q9EP73); PD-1/PD-L1 binding, inhibitor, ELISA; concentration not given).
The tumour uptake of `CC[C@H](C)[C@H](NC(=O)[C@H](CO)NC(=O)[C@H](Cc1ccc(O)cc1)NC(=O)[C@H](Cc1ccc(O)cc1)NC(=O)[C@H](CC(N)=O)NC(=O)CNC(=O)[C@H](CO)NC(=O)[C@H](Cc1ccc(O)cc1)NC(=O)[C@H](CO)NC(=O)[C@H](CO)NC(=O)[C@H](CC(N)=O)NC(=O)COCCOCCNC(=O)CN1CCN(CC(=O)O)CCN(CC(=O)O)CCN(CC(=O)O)CC1)C(=O)N[C@@H](CC(C)C)C(N)=O` [copper-64 labelled] is reported as 23.1 %ID/mL (dynamic PET; mouse, tamoxifen-induced PDAC, blood; intravenous, 0.1 µg/mouse, 1.9 min).
For `CC(=O)NC[C@@H]1[C@@H](O)C[C@H]2[C@H](O)C[C@@H](CO)N12`, the inhibition was 25.8% (human placental β-N-acetylglucosaminidase; 0.0214 µM, run 1, together with: p-nitrophenyl GlcNAc).
The survival of `Cc1cc(C(=O)Nc2nc3cccc(C)c3n2[C@H]2CCCCN(C(=O)/C=C/CN(C)C)C2)ccn1` is reported as 64.8% and 55% and 65.9% and 61.9% (Trypanosoma brucei brucei; 2T1 CLK1 overexpressing; 0.0391 µM, DMSO pretreated; baseline: maximum).
The inhibition of `CS(C)(=O)=Nc1ccc(-c2ccc(-c3nc4cc(O[C@@H]5CO[C@H]6[C@@H]5OC[C@H]6O)[nH]c4cc3F)cc2)cc1` is reported as 2% (Interferon-induced, double-stranded RNA-activated protein kinase (EIF2AK2, Homo sapiens, UniProt P19525); enzyme activity, inhibitor; 10 µM).
The inhibition of `CC(C)[C@H]1NC(=O)C[C@H]2/C=C/CCSSC[C@@H](NC1=O)C(=O)N[C@H](Cc1cccc3ccccc13)C(=O)NCC(=O)O2` is reported as 6.3% (Serine/threonine-protein kinase Sgk3 (SGK3, Homo sapiens, UniProt Q96BR1); enzyme activity, inhibitor; 10 µM).
With `C/C(=N\OCCCN1CCCCC1)c1ccc(C(F)(F)F)cc1` the inhibition was 14.7% (Beta-2 adrenergic receptor (ADRB2, Homo sapiens, UniProt P07550); antagonist, cAMP; 10 µM).
With `CC(C)(C)C(=O)OCOP(=O)(OCOC(=O)C(C)(C)C)C1CCCN(O)C1=O` (stereo not shown) the log TGI was -5.44 log M (COLO 205).
With `O=S(=O)(F)CCc1cn(Cc2ccccc2F)nn1` the inhibition was 37 ± 2.8% (ache; Ellman; 20 µM).
For `O=C(CN1CN(c2ccccc2)C2(CCN(C(=O)c3cnc4[nH]ncc4c3)CC2)C1=O)NCC(F)(F)F`, the inhibition was less than 50% (Mitogen-activated protein kinase kinase kinase kinase 3 (MAP4K3, Homo sapiens, UniProt Q8IVH8); inhibitor; concentration not given).
`CC(C)CC(C(=O)N1CC2(CC1C#N)C(=O)Nc1ccccc12)N(C)C(=O)c1cc2c(F)cc(F)c(F)c2[nH]1` (stereo not shown) has a Hill slope of -2.02 (Caspase-3 (CASP3, Homo sapiens, UniProt P42574)).

Excerpt of the above:
Under “serum total protein”, `O=C1NC2(CC2)COc2ncc(F)cc2[C@H]2COCCN2c2ccn3ncc1c3n2` is recorded as 63.9 ± 7 g/L (Sprague-Dawley rat, female, serum; oral, 2.5 mg/kg/day, end of recovery, 4-week subacute toxicity).
